Experimental data of several laboratories.
Lines come from different studies, so protocols differ. ± gives the spread as reported.

Structure (SMILES) | test | test system | conditions | how to read | measurement | value
CS(=O)(=O)n1cc2c(n1)CN([C@H]1CO[C@H](c3cc(F)ccc3F)[C@@H](N)C1)C2 |  | healthy Japanese men, plasma | oral, 10 mg single dose, fed, geometric mean |  | concentration at 168 h | 9.16 nM
C[C@@H]1O[C@@H](OC[C@H]2O[C@@H](Oc3c(-c4ccc(O)c(O)c4)oc4cc(O)cc(O)c4c3=O)[C@H](O)[C@@H](O)[C@@H]2O)[C@H](O)[C@H](O)[C@H]1O |  | human, urine | oral, dose not given, 5 h |  | concentration | 790 ng/mL
NC(N)=NCCC[C@H](NC(=O)[C@H](Cc1ccccc1)NC(=O)[C@@H]1CCCN1C(=O)[C@H](CO)NC(=O)[C@H](Cc1ccccc1)NC(=O)CNC(=O)[C@@H]1CCCN1C(=O)[C@@H]1CCCN1C(=O)[C@@H](N)CCCN=C(N)N)C(=O)O | LC-MS/MS | human serum, gel separator tube | concentration not given, 4 h, room temperature | baseline: initial concentration | concentration change | -64.3 ± 18%
O=C(O)CCS(=O)(=O)O |  | Alzheimer's disease patients, CSF | oral, 150 mg tramiprosate twice daily, week 78 |  | concentration | 22.3 ng/mL
CO/N=C1\C[C@]2(C[C@@H]3C[C@@H](C/C=C(\C)C[C@@H](C)/C=C/C=C4\CO[C@@H]5[C@H](O)C(C)=C[C@@H](C(=O)O3)[C@]45O)O2)O[C@H](/C(C)=C/C(C)C)[C@H]1C |  | lamb, jejunum mucosa | intraruminal, 0.2 mg/kg, 1 day |  | concentration | 134 ± 41.7 ng/g
O=c1c(-c2ccc(O)cc2)coc2cc(O)ccc12 |  | human, urine | oral, dose not given, 5 h |  | concentration | 190 ng/mL
COC(=O)N[C@H](C(=O)N[C@@H](Cc1ccccc1)[C@@H](O)CN(Cc1ccc(-c2ccccn2)cc1)NC(=O)[C@@H](NC(=O)OC)C(C)(C)C)C(C)(C)C |  | Macaca nemestrina, lymph node mononuclear cells | subcutaneous, dose not given, 192 h, free drug combination |  | concentration | 30 nM
COc1ccc(-n2nc(C(N)=O)c3c2C(=O)N(c2ccc(N4CCCCC4=O)cc2)CC3)cc1 |  | healthy Chinese subjects | oral, 10 mg twice daily, 12 h, day 9 |  | concentration | 121 ng/mL

Some of these lines once more:
Structure (SMILES) | test | test system | conditions | how to read | measurement | value
O=C(O)CCS(=O)(=O)O |  | Alzheimer's disease patients, CSF | oral, 150 mg tramiprosate twice daily, week 78 |  | concentration | 22.3 ng/mL
